# Measured values pooled from the literature.
# Compare with care: the assays were run in different laboratories. “And” joins repeats or separate records; there may be more than shown. ± marks the error that the study gave.
SMILES,target or system,test,system,conditions,scale,endpoint,result
C=CCNc1c(O)cc2c(O)c1C[C@@H](C)C[C@H](OC)[C@H](O)[C@@H](C)/C=C(\C)[C@H](OC(N)=O)[C@@H](OC)/C=C\C=C(/C)C(=O)N2,,,"patients with STS, GIST or other tumours",dose not given,,discontinuation due to progressive disease,48%
CC[C@H](C)[C@@H]1NC(=O)[C@@H]2CCCN2C(=O)[C@H](CC(C)C)NC(=O)[C@H](CC(C)C)NC(=O)CNC(=O)[C@@H](NC(=O)[C@@H](NC(=O)[C@H](CC(=O)O)NC(=O)CNC(=O)[C@@H](NC(=O)[C@H](C)NC(=O)CNC(=O)[C@H](CCCCN)NC(=O)[C@H](CC(C)C)NC(=O)[C@H](CC(C)C)NC(=O)[C@H](CCCCN)NC(=O)CNC(=O)[C@@H](NC(=O)[C@@H](N)CC(C)C)C(C)C)C(C)C)C(C)C)CSSC[C@@H](C(=O)O)NC1=O,,"RNA-seq, measured: Smarca2","mouse, traumatic brain injury model, frontal cortex and hippocampus",dose not given,baseline: TBI alone,log2 fold change,0.466
C=CC(=O)Nc1cc(Nc2ncc(Cl)c(Nc3ccccc3C(=O)C(=O)N(C)C)n2)c(OC)cc1N1CCN(C)CC1,,RECIST v1.1 best response,human EGFR T790M NSCLC,"oral, 25 mg/day, per-protocol set",,patients with stable disease,0%
Cc1cn([C@H]2O[C@@H](CO[P@@](=O)(N[C@@H](C)C(=O)OC(C)C)Oc3ccccc3)[C@H](O)[C@H]2F)c(=O)[nH]c1=O,,measured: detectable HBV DNA,adults with chronic hepatitis B,"25 or 50 mg, week 24, after treatment discontinuation",,virologic relapse,89%
C/C=C1\NC(=O)C(C(C)O)NC(=O)C(CCCN)NC(=O)C(CCO)NC(=O)C(CCN)NC(=O)C(CCN)NC(=O)C(NC(=O)CC(O)CCCCCCCCCCC)COC(=O)C(C(O)CCl)NC(=O)C(C(O)C(=O)O)NC1=O (centres unmarked),,calcein leakage,DOPC/DOPG/CHOL liposomes,"concentration not given, with: 40 mM CaCl2",,fusion time constant,52 ± 33 min
C[C@]1(CO)Cc2ncn(-c3ccc(C#N)c(Cl)c3)c2C(=O)O1,,,Japanese subjects,3 mg single dose,,urinary potassium excretion 0-24 h,32.6 mmol
Cn1ncc(-c2nc(N[C@H]3CC[C@H](N)CC3)ncc2Cl)c1CC1CC1,,phase I clinical trial,"R/R AML or high-risk MDS patients, RUNX1-mutated",11 mg or higher,,CR/CRi rate,30%
C[C@H](N)Cn1ncc2ccc3c(c21)CCCO3,,DOM stimulus generalization,rat trained on DOM,"intraperitoneal, training dose 1.0 mg/kg DOM",,ED50,0.18 µmol/kg
COc1ccc(CCC2CCCC(CCc3ccc(OC)cc3)N2C[C@@H](O)CO)cc1.Cl (stereo in doubt),,methamphetamine-evoked dopamine release,rat striatal slices,"1 to 100 µM, with: methamphetamine 5 µM",,inhibition,inhibited
Oc1nc(-c2ccc(C(F)(F)F)cc2)nc2c1CSCC2,human coronavirus OC43,virus-induced cell killing,MRC-5,maximum over 10 doses,,maximum inhibition,0%
CCCCC1(CCCC)CN(c2ccccc2)c2cc(SC)c(OCC(=O)N[C@@H](C(=O)NCC(=O)O)c3ccccc3)cc2S(=O)(=O)C1,,measured: LDL cholesterol,"human, serum","5 mg once daily, day 11",,serum LDL-C,91.2 mg/dL
Clc1cc2c(cc1Cl)Oc1cc(Cl)c(Cl)cc1O2,,"RNA-Seq, measured: Ephx2","female Sprague-Dawley rat, liver",dose not given,baseline: vehicle,mRNA level,1.3 fold
C[C@H]1O[C@@H](O[C@H]2CC[C@@]3(C)[C@@H](CC[C@]4(C)[C@@H]3C=C[C@]35OC[C@@]6(CCC(C)(C)C[C@H]63)[C@@H](O)C[C@]54C)[C@]2(C)CO)[C@H](O)[C@@H](O[C@@H]2O[C@H](CO)[C@@H](O)[C@H](O)[C@H]2O)[C@H]1O,,,"mouse, ethanol-fed, hepatic SIRT1 knockdown, plasma","dose not given, 5 h, high dose",,γ-GT activity,31.4 U/L and 41.6 U/L and 31.1 U/L and 33.6 U/L and 36.2 U/L
c1cncc([C@@H]2CCCN2)c1,,radioligand binding,rat brain,"50 µM, BZP site, PDSP screen",,inhibition,5.71%
CC(C)CCCCCCCCC[C@@H]1CC(=O)N[C@@H](CCC(=O)O)C(=O)N[C@@H](CC(C)C)C(=O)N[C@H](CC(C)C)C(=O)N[C@@H](C(C)C)C(=O)N[C@@H](CC(=O)O)C(=O)N[C@H](CC(C)C)C(=O)N[C@@H](CC(C)C)C(=O)O1,,calcein leakage,DOPC/DOPG/CHOL liposomes,"concentration not given, with: 20 wt% PEG-8000",,fusion time constant,12 ± 3 min
CS(=O)(=O)c1ccc(-c2nnc(/C=C/c3nnc(-c4ccc(C#N)cc4)o3)n2-c2ccccc2Cl)nc1,,"RNA-seq GSEA, measured: HALLMARK_UNFOLDED_PROTEIN_RESPONSE","organoids, small intestinal, Apc Q1405X, mouse","dose not given, wild-type organoids","baseline: DMSO, direction not given",normalized enrichment score,-2.06
CN1CCN(S(=O)(=O)c2cc([N+](=O)[O-])ccc2N(CCOS(C)(=O)=O)CCOS(C)(=O)=O)CC1,,,"NSG mice, sample CE PDX","intraperitoneal, 25 mg/kg weekly x3",,event-free survival,> 84 days
O=C(O)/C=C/C(=O)O.Oc1cccc2[nH]cc(CCNCc3ccccc3)c12,,,C57BL/6J mice,"subcutaneous, 1 mg/kg",baseline: pre-session baseline,body temperature change,0.2 ± 0.1 °C
C=CC(=O)N1CCN(c2nc(=O)n(-c3c(C)ccnc3C(C)C)c3nc(-c4c(O)cccc4F)c(F)cc23)[C@@H](C)C1,human coronavirus OC43,virus-induced cell killing,MRC-5,screen,,maximum inhibition,4.97%
CC[C@H](C)[C@H](NC(=O)[C@H](CCC(=O)O)NC(=O)[C@H](CCCNC(=N)N)NC(=O)[C@H](CCCNC(=N)N)NC(=O)[C@H](CCCNC(=N)N)NC(=O)[C@H](CCC(N)=O)NC(=O)[C@H](CCCNC(=N)N)NC(=O)[C@H](CCCNC(=N)N)NC(=O)[C@H](CCCCN)NC(=O)[C@H](CCCCN)NC(=O)[C@H](CCCNC(=N)N)NC(=O)CNC(=O)[C@H](Cc1ccc(O)cc1)NC(C)=O)C(=O)N[C@@H](CC(=O)O)C(=O)N[C@@H](Cc1c[nH]cn1)C(=O)N[C@@H](CC(=O)O)C(N)=O,,co-immunoprecipitation,"db/db mouse, hippocampus","intravenous, dose not given, 6 weeks, weekly",,RAGE-RIPK1 interaction,decreased
Cc1cn(-c2cc(NC(=O)c3ccc(C)c(Nc4nccc(-c5cccnc5)n4)c3)cc(C(F)(F)F)c2)cn1,,,human patients,"dose not given, 12 to 6 months, caregiver distress","baseline: placebo, direction not given",difference in mean NPI score,0
CC12C(=O)C(C)(C(c3ccccc3)=C1c1ccccc1)C1(Br)C(=O)N(CCNCCN)C(=O)C21.O=C(O)C(F)(F)F.O=C(O)C(F)(F)F (centres unmarked),,"HPLC, measured: CO-release by-product",TRIS-sucrose buffer,"pH 7.4, 37 °C",,time to 50% conversion,75 min and 63 min and 65 min and 77 min and 95 min
COc1cc(C(=O)NS(=O)(=O)c2ccccc2C)ccc1Cc1cn(C)c2ccc(NC(=O)OC3CCCC3)cc12,,platelet aggregation,human platelet-rich plasma,"20 µM, 180 s, with: collagen",baseline: DMSO,inhibition,7%

# Repeated from above:
SMILES,target or system,test,system,conditions,scale,endpoint,result
Oc1nc(-c2ccc(C(F)(F)F)cc2)nc2c1CSCC2,human coronavirus OC43,virus-induced cell killing,MRC-5,maximum over 10 doses,,maximum inhibition,0%
C=CC(=O)Nc1cc(Nc2ncc(Cl)c(Nc3ccccc3C(=O)C(=O)N(C)C)n2)c(OC)cc1N1CCN(C)CC1,,RECIST v1.1 best response,human EGFR T790M NSCLC,"oral, 25 mg/day, per-protocol set",,patients with stable disease,0%
